Measured values of several laboratories.
A part holds a random share of what one study measured.

Study 1 — method: protein binding microarray; form: double-stranded DNA, one strand shown; sample: in vitro; concentration: not given; reference: not given; direction: higher = stronger binding; endpoint: E-score
Target: Histone acetyltransferase KAT6A, both winged helices, GST fusion (KAT6A, Homo sapiens, UniProt Q92794, residues 1-181)
Notes: 8-mer, flanks averaged, mean of 2 arrays, mostly near background
Construct (chain): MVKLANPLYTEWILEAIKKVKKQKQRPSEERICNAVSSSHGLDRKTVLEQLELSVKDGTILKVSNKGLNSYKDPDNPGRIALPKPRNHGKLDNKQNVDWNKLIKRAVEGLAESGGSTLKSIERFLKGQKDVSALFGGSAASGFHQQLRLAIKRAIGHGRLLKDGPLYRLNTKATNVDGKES
Oligonucleotide = CTGCGCGC; value = 0.375
Oligonucleotide = AAAGCGCT; value = 0.336
Oligonucleotide = ATTTTATA; value = 0.0558
Oligonucleotide = AGTCGTAC; value = -0.0369
Oligonucleotide = CGACAGCG; value = 0.198
Oligonucleotide = AGATTATA; value = -0.0726
Oligonucleotide = ACGGCCGC; value = 0.405
Oligonucleotide = ATGATGTC; value = -0.00807
Oligonucleotide = AAGGCATG; value = -0.153
Oligonucleotide = AGACCAAA; value = -0.0457
Oligonucleotide = AAACCCTC; value = -0.00502
Oligonucleotide = AGCGTTTG; value = -0.0761
Oligonucleotide = GTCTAAAC; value = -0.0937
Oligonucleotide = GACAGGGA; value = -0.108
Oligonucleotide = CCCACTGA; value = -0.194
Oligonucleotide = ATTCCTCG; value = -0.0581
Oligonucleotide = GCCGAAGA; value = 0.133

Study 2 — method: RNA Bind-n-Seq; form: RNA; sample: in vitro; concentration: 200 nM; notes: whole 134-nt RNA, ends assumed; with: 150 mM LiCl; reference: input library; direction: higher = stronger binding; endpoint: log2 enrichment; library: 7-deaza-guanosine replaces G
Target: Fragile X messenger ribonucleoprotein 1, C-terminal low-complexity region (Fmr1, Mus musculus, UniProt P35922)
Constant ends, left off below: GGGAGUUCUACAGUCCGACGAUC … UGGAAUUCUCGGGUGUCAAGG
Oligonucleotide = UCCUGUGCUACACAUCGUAUGUACCGAAUCGGGGAAAAAAGGGAAAAAAGGGAAAAAAGGAAAGUAUUAUGUUACGCCGUUCGGAUCUGC; value = 0.229
Oligonucleotide = UGGGAGGUGGAUUUUGUUUAUUUUUUUAGCUCAUUUCCAGGGGUGGGAAUUUUUUUUUAAUACGUGUCAUGAAUAAAGUUGUUUUUGAAA; value = -0.171
Oligonucleotide = CCUGUGCUACACAUCGUAUGUACCGAAUCGGGGAAAAAGGGGUUUUUGGGGAAAAAGGGGAAAGUAUUAUGUUACGCCGUUCGGAUCUGC; value = -0.409
Oligonucleotide = GUCCUGUGCUACACAUCGUAUGUACCGAAUCGGGUUUUUUUGGGUUUGGGUUUUUGGGAAAGUAUUAUGUUACGCCGUUCGGAUCUGCAC; value = -1.55
Oligonucleotide = CAAGUCCUGUGCUACACAUCGUAUGUACCGAAUCGGGGCCCGGGCCCGGCCCGGGGAAAGUAUUAUGUUACGCCGUUCGGAUCUGCACUU; value = -1.59
Oligonucleotide = GUCCUGUGCUACACAUCGUAUGUACCGAAUCGGGAAAAAAAGGGAAAAAGGGUUUGGGAAAGUAUUAUGUUACGCCGUUCGGAUCUGCAC; value = -2.27
Oligonucleotide = UUACCGACACCGUAGAACAGAGCAAGAGGAGGAUGAAGAGCUAUUAACAGAAAGCUCCAAAGCAACCAAUGUUUGCACUCGAUUUGAAGA; value = 0.146
Oligonucleotide = ACCAUGCAGGUUGGCAUCUUUGGGAAGUGGGGCAAGGGGGGGAUAGGGAGGGGGGUAACACUUUGGGAACAGGUGGUCCCAGGUCGUUUC; value = 1.5
Oligonucleotide = ACCAUGCAGGUGGGCAUCUAAAGGAAGUGGGGCAAGGGGGGGAUAGGGAGGGGGGUAACACUUUGGGAACAGGUGGUCCCAGGUCGUUUC; value = 1.47
Oligonucleotide = GUCCUGUGCUACACAUCGUAUGUACCGAAUCGGAAAAAAGGAAAAAAGGGAAAAAAGGAAAGUAUUAUGUUACGCCGUUCGGAUCUGCAC; value = -0.621
Oligonucleotide = UUUAGGUGUUAGACGGUACCGACAACCAGUAUUUGGGCCUGCAGAUUGGACAGCCCCAGGAUGAAGAUGAGGAAGCCACAGGUAUUCUUC; value = -3.36

Study 3 — method: RNA Bind-n-Seq; form: RNA; sample: in vitro; concentration: 365 nM; reference: no-protein control; direction: higher = stronger binding; endpoint: RBNS enrichment (R)
Target: RNA binding protein fox-1 homolog 2, RRM domain, GST-SBP tag (RBFOX2, Homo sapiens, UniProt O43251-10, residues 100-194)
Notes: natural RNA segment, single round, ends assumed
Constant ends, left off below: GGGAGUUCUACAGUCCGACGAUC … UGGAAUUCUCGGGUGCCAA
Target sequence (chain): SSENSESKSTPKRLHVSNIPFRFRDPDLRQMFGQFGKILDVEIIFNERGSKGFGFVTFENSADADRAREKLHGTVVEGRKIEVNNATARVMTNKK
Oligonucleotide = UUUGCAAAUGUGUAUGAUGCCAGUUGUUUGGACUCUUGGAAAACACCACUGGAGGGCUUUGCUCCAGAAUGCAGACCGCUCUGCCAAGGCCUCCAUGUCUGCUUGCAUCU; value = 9.2
Oligonucleotide = CUGGGUUGGGGUCCCCCAGCAUCCAGACUGGAAACCUACCCAUUUUCCCCUGAGCAUCCUCUAGAUGCUGCCCCAAGGAGUUGCUGCAGUUCUGGAGCCUCAUCUGGCUG; value = 0.544
Oligonucleotide = ACACAAGGAGGAUCAGACUUUAAAACUAUCCAUGUGGAUUCUGAGAGCUGCUGCCCAGCAGAAGUCUUAGAAAUAUGCCUUGAAGCAGCCGUUGUGUAAUUAUGAGCUGG; value = 0.339
Oligonucleotide = UAACCUUUUUAGGAAUAUGGAGAUAAAGAUUGUUUUUCUGAUUUUCUUCCAUCUGAAGUUUGACUUUUAUACCCAGCCAGAAGUUACAAAAUGAUGACCCACUCUGGGUA; value = 0.322
Oligonucleotide = GCUCAUAAAUCAAAGCUCAUCAGUUCCCAUAAAUGCAGUUGUCAAAGAAAAGAUUUGGUUGCCAUAGUCAUAAGCAAUGAUACAUGAAACCAAUGAAAGACAGUACAUGU; value = 0.265
Oligonucleotide = UCCUAAUAAGUAGAAUACACUACUGUCAACACCUGACCUUCGUUUUUGUCUUGUGUUGGGGUUAGAGAGAGCAGGAAGGGGGUUCUGACCCUCUUCCCUCCACUGAGUGC; value = 0.414
Oligonucleotide = CCCUGCAGGCCGCAUCAUGGUGGUGUCUAUUGCCGGGGUGGCCACAGGCUGGAUCCGAGUGUCCCCUCUGCAGCAGACGGGGACGCCAGGAUGCGGCUUGGGACUCAGAC; value = 0.211
Oligonucleotide = CGGAUGCCCCCACCACCUGGACAGAGGCCACACUGACUGCCCACCCAGCUGUGGCGGGAGGUGCAGAGCAGAGGGCUUUAGGGAGCAGUGACUGCGGUCACCCCUUUAGU; value = 0.274
Oligonucleotide = UGAGCCCCUAGACAGUAUUGCCAUCUCUGGCCAAAUAUGCACUUUCCCUAGAAAGCCAUAUUCCAGCAAUGAACCUUGUGCUAUAGUGACUCCCACCUGUACAUACAUUG; value = 0.359
Oligonucleotide = CCUCAUCACCUCAUGGCCAAUUUGCACUUUGCCAGACUGGAUGGAAUAGAGAAGGGUCCUGUGGAGUUCCAGGCCCUGGCUGCAAUGCUCCACACACACACACACCCCUC; value = 0.636
Oligonucleotide = CUCCUCCUAUCUGGCUUGUGCUCCUCAGGUGGCUGAAGGGGCCACCUUAGUUCUCAUAGAAAUUGUGGACCAAUAGGAUAUGUGCUGUGUAUAACUUUCUUUUUAAACUG; value = 0.506
Oligonucleotide = GUUAACUGGUAAUCGCCUUUGCUUGCCUGUCGUCAGUGCAGCGAGCUGAGGCACUUGUCCGUUCGUCUUACCAUCUAACCAAACAAAAGACAAAGAAAUUGUCCUCCAAC; value = 0.241

Study 4 — method: protein-binding microarray; form: double-stranded DNA, one strand shown; sample: in vitro; concentration: 0.8 µM; notes: whole 60-bp probe, no competitor; direction: higher = stronger binding; endpoint: fluorescence intensity; constant ends, left off below: … GTCTTGATTCGCTTGACGCTGCTG
Target: Centromere-binding protein 1, full length, N-terminal tag (CBF1, Saccharomyces cerevisiae, UniProt P17106, residues 1-351)
Sequence of UniProt P17106 (whole entry, looked up): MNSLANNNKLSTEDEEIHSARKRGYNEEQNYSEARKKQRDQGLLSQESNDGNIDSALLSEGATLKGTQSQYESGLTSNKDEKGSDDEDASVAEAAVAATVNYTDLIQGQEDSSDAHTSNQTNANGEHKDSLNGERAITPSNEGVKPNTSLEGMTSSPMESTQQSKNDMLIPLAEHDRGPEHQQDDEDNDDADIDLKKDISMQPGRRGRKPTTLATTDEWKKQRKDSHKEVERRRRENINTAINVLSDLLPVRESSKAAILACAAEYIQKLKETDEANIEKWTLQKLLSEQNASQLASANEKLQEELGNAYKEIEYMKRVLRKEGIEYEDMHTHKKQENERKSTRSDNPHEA
Oligonucleotide = CTAGCTAAATTTAAGGGCGTGATCTCAGAACTCTTC; value = 1200 a.u.
Oligonucleotide = GAAGAGATGTGCAACAATGTGACCAGTACACGTTAG; value = 808 a.u.
Oligonucleotide = CTAGTCTATCTTATAGGCGTGATAGATGTCATTTTC; value = 632 a.u.
Oligonucleotide = GAAGCTGATGCTGATGCTGATGTTGTGCTATATTAG; value = 504 a.u.
Oligonucleotide = CTATCTCCTAAACGGCATGTGATTGAACACGGTTTC; value = 1530 a.u.
Oligonucleotide = GAATGACTGTGATGATTGGTGATGAACCATATATAG; value = 556 a.u.
Oligonucleotide = CTACAGTTCGATTCTGATGTAGGCAATGGAAGATTC; value = 569 a.u.
Oligonucleotide = CTACACAGTTGTAGTCACGTGCGCGCCATGCTGTTC; value = 19400 a.u.
Oligonucleotide = GAAAAATGAAATCTCAACGTGGTTGTAAGAGTTTAG; value = 524 a.u.
Oligonucleotide = CTACGTGTTTCGGGACACGTCGCTGAAAAGGATTTC; value = 525 a.u.
Oligonucleotide = CTATGAACACCCCGTCACCTGAGTCAGGTAATTTTC; value = 757 a.u.
Oligonucleotide = GAATATTCCCATAATAACGTGCAAAAGTCCCTATAG; value = 636 a.u.
Oligonucleotide = GAAAATTGAGATGGTCACATAACGTGAAAACTCTAG; value = 601 a.u.
Oligonucleotide = GAATTGAAATGTCATCACGTGGACATTATATCATAG; value = 15100 a.u.
Oligonucleotide = CTAATTTTTTCAAATCATATGAAACAAGTATTATTC; value = 601 a.u.
Oligonucleotide = TGTACGAAGCTATTTTTGGTGGTTATAGTAGTTAGG; value = 505 a.u.
Oligonucleotide = GAAGAATATATACGCCTGATGACGTACGTTTTATAG; value = 507 a.u.
Oligonucleotide = GAATAGCTTGAGAAGGAGGTGATGCGTTACTAATAG; value = 500 a.u.
Oligonucleotide = CTACCTATTAATTGTCAGACCACCGAATGCTATTTC; value = 629 a.u.
Oligonucleotide = GAATGGCGCGCACGTGACTACAACTGTGGCTGGTAG; value = 20600 a.u.
Oligonucleotide = CTACCCACATACAATCACCTGTAGAAAGAAACATTC; value = 636 a.u.
Oligonucleotide = GAATAACCTCTTGTGATCATCTGCTATGTGGAATAG; value = 723 a.u.
Oligonucleotide = GAATTCTTTTTTTGCCACGGGGCGGGTACTAGATAG; value = 713 a.u.
Oligonucleotide = GAACTTATCGCAAAGCGGGTGAGATCAAATGCTTAG; value = 478 a.u.
Oligonucleotide = GAATCATATATTGATCACAATGCACGGAGACGCTAG; value = 651 a.u.
